Published values gathered from unrelated publications.
Each numbered part is a random draw from the data of one study; scales do not carry over between parts. Substitutions count along the parent as printed.

Set 1
Target: Histone acetyltransferase KAT6A, both winged helices, GST fusion (KAT6A, Homo sapiens, UniProt Q92794, residues 1-181)
Technique: protein binding microarray
Molecule type: double-stranded DNA, one strand shown
Matrix: in vitro
Concentration: not given
Setting: 8-mer, flanks averaged, mean of 2 arrays, mostly near background
Baseline: not given
Reading: higher = stronger binding
Residues (chain): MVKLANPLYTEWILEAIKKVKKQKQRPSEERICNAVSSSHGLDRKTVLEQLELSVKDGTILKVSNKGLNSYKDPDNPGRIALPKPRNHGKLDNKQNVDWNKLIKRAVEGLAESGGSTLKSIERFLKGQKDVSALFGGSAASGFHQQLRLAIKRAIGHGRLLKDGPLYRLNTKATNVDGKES
With `AACTGATC` the E-score was -0.0706.
With `GACCGCCC` the E-score was 0.117.
`GCACATTA` gave an E-score of 0.0293.
The E-score of `ACTGATCC` is reported as -0.0619.
For `GGCATGAA`, the E-score was 0.0626.
With `ACCCAGTA` the E-score was -0.179.
For `GTCCTTTA`, the E-score was -0.162.
With `CGATCTGC` the E-score was 0.059.
For `TAACACGA`, the E-score was 0.061.
The E-score of `CTCGCTGC` is reported as -0.0128.
`AAAGTTTC` has an E-score of -0.0361.
For `GCTTGATA`, the E-score was -0.0365.
`ATACATAC` gave an E-score of -0.0678.
`ACACCGTC` gave an E-score of 0.16.

Set 2
Target: RNA binding protein fox-1 homolog 2, RRM domain, GST-SBP tag (RBFOX2, Homo sapiens, UniProt O43251-10, residues 100-194)
Technique: RNA Bind-n-Seq
Molecule type: RNA
Matrix: in vitro
Concentration: 365 nM
Setting: natural RNA segment, single round, ends assumed
Baseline: no-protein control
Reading: higher = stronger binding
Target sequence (chain): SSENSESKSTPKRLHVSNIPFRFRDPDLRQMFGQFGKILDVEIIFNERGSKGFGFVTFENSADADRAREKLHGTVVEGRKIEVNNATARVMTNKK
`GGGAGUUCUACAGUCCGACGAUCUGUGUGCCUGGGAGCAGGUUACAACUCUGGUUUGACUUUCAUUUUGUUGAGAAGCUUCUGUUUUAAGGAAUUUCUCCUUCUUGUCUCAUUCCUGCCUUUCCUGGGAAGGGUGGAAUUCUCGGGUGCCAA`: “RBNS enrichment (R)” 0.33.
Under “RBNS enrichment (R)”, `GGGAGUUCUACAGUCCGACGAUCUUCUAUUAACAUGAUACAAAGGAUGAUGAUUGUAAGUGUUUACUGACUGGCAGCUUUUAUUUCAGUAUUAGCACAGCGUCUUGCCAGUGUUGGAGGCCAUGUAUUAUUUCUGGAAUUCUCGGGUGCCAA` is recorded as 2.2.
Under “RBNS enrichment (R)”, `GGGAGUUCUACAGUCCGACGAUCAGAGGAAAUUUCCUCACCUCCCAAUUCUGUGUAAUCAAGAAUACCUCCUUAAUUCUGAGAGCAUGAAUAUUUGACCUUAAAUCUCCAGUGACUCAGAGCUUCACCCACAAUGGAAUUCUCGGGUGCCAA` is recorded as 0.779.
`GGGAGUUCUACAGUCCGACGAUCCCUCCUCCCCACCCCCUCGUCAGCCAGCGUUGCUGUUCCUUGCAGAGAAAAGGAUUGUGGGAAACUCCAGGACUCUUCCCACCGCCUCCCAGCGCCUGCCUGCUGGGGCUUGGAAUUCUCGGGUGCCAA`: “RBNS enrichment (R)” 1.36.
Under “RBNS enrichment (R)”, `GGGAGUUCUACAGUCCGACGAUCUUUGACUUUUUGGAAUUUAACAGUUUUAUUUUGGCCUUGUACUUGCCUGUAUUAUAAUGUGAAUUUUGUAGAUGUAGGGAAUAAGUUGCUGUAAAAUGUGUGUAAAUUUGUGGAAUUCUCGGGUGCCAA` is recorded as 0.891.
`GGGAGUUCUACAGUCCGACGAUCUGCCGCAGCAUCUCACACCCCGAGGGCCUGAGGAGAGGGAGCUGUGGGCCACGCCUGGGAGGGGCCCAGCUGGGGUUACUGGCCCCGCAUGAGCCUCGGCCAUCUCUCCCUGGAAUUCUCGGGUGCCAA`: “RBNS enrichment (R)” 1.86.
For `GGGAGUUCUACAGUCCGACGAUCUCCACUUCUACCGCCUGUGUGACUGGCUGCCCUCCUGAGGCAGCACCACACCAGGGACCAGGGGUGCCCAGGCACCCCCCAACACUGGAUGCAAUGGUGUUACACUGGAGUGGAAUUCUCGGGUGCCAA`, “RBNS enrichment (R)” read 0.539.
`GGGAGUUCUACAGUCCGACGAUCCCUCUGCAGAGGCUGCUGAAGAAGAGUGGGUCAGCUGCAUCCUGGCUGAACCUUUAAUAGGGGACCCUGGGGACCCAGCAGUAGCACGAGGGCUGCACACACAGGGCGGCUGGAAUUCUCGGGUGCCAA` — result for “RBNS enrichment (R)”: 7.68.

Set 3
Target: CCNF, cyclin fold, Cln2 fusion (human)
Technique: yeast growth competition, sequencing
Matrix: yeast
Setting: strong parent motif
Baseline: not given
Reading: higher = stronger binding
Starting sequence: SLBP docking peptide (human); ARYKRKLLINDFG
`ARWKRKLLINDFG [Y3W]`: “normalised enrichment score” 1.71.
`ARYNRKLLINDFG [K4N]`: “normalised enrichment score” 1.73.
`ARYKAKLLINDFG [R5A]` — result for “normalised enrichment score”: 1.23.
`ARYKKKLLINDFG [R5K]`: “normalised enrichment score” 1.13.
`ARYKRKLLINGFG [D11G]`: “normalised enrichment score” 1.87.
`ARYKRKLLINDQG [F12Q]` — result for “normalised enrichment score”: 1.39.
`AIYKRKLLINDFG [R2I]` — result for “normalised enrichment score”: 2.03.
`ARYKFKLLINDFG [R5F]`: “normalised enrichment score” 1.77.
`ARYKRKLLINDFN [G13N]`: “normalised enrichment score” 1.19.
`KRYKRKLLINDFG [A1K]` — result for “normalised enrichment score”: 1.27.
`ARYKRKLLENDFG [I9E]`: “normalised enrichment score” 1.17.
For `ARPKRKLLINDFG [Y3P]`, “normalised enrichment score” read 1.75.

Mixed results
`PhoQ, residues 284 288 289 292 302 303 SSTLSG` has a fold induction of 0.686 (PhoP, residues 12 14 15 18 19 QYCSL (Escherichia coli, UniProt P23836); Sort-seq, measured: YFP reporter; E. coli; PhoQ-PhoP variant library, added: 10 µM Mg2+; baseline: high Mg2+ state, higher = stronger signaling).

Some of these lines once more (set 3):
`ARYKKKLLINDFG [R5K]`: “normalised enrichment score” 1.13.
`ARYKRKLLINGFG [D11G]`: “normalised enrichment score” 1.87.
`ARYKRKLLINDQG [F12Q]` — result for “normalised enrichment score”: 1.39.
